Measured values gathered from unrelated publications.
Each line is one published result; not all experiments were run side by side. ± gives the spread as reported. Converted amounts (≈) assume the structure as drawn.
AGTR2: Type-2 angiotensin II receptor (AGTR2, Homo sapiens, UniProt P50052)

Compound | target or system | test | system | conditions | how to read | quantity | value
CCC1CC2C(C)=CC3C(=O)CCCC3C=CC(C)=CC2C(=O)O1 (stereo not drawn) | Microtubule-associated protein tau, K18 fragment, aggregated (MAPT, Homo sapiens, UniProt P10636) | thioflavin T fluorescence |  | 1000 µM, preaggregated 3 days | baseline: before treatment | tau K18 fibril dissociation | 41.4%
NS(=O)(=O)Nc1ncnc(OCCOc2ncc(Br)cn2)c1-c1ccc(Br)cc1 |  | Eadie-Hofstee plot, refers to: compound formation | male Sprague-Dawley rat, liver microsomes | 1500 mg/kg daily, 4 weeks |  | Vmax | 516 ± 15 pmol/min/mg
C[n+]1cn(C2OC(COP(=O)(O)OP(=O)([O-])OP(=O)(O)OCC3OC(n4cnc5c(=O)[nH]c(N)nc54)C(O)C3O)C(O)C2O)c2nc(NCc3ccccc3)[nH]c(=O)c21 (stereo not drawn) | Eif4e (Mus musculus, UniProt P63073) | differential scanning fluorimetry |  |  | baseline: m7GpppG | relative affinity | ~2.5
CN1CCN(c2ccc(CNc3ccnc4cc(Cl)ccc34)cc2)CC1 | Nuclear receptor subfamily 4 group A member 2, ligand binding domain (Homo sapiens, UniProt P43354) | reporter gene, agonist, Gal4-Nurr1 hybrid reporter | HEK-293T | 30 µM, crude library product | baseline: vehicle (0.1% DMSO) | activation | ≤ 1.5 fold
CCCCC/C=C/C(=O)CCc1ccc(O)c(OC)c1 | mouse mAb 1-D6 | antibody binding, indirect competitive ELISA |  | together with: coating antigen 1-OVA |  | IC50 | 658 ng/mL (≈ 2.38 µM)
CC[C@H](C)[C@H](NC(=O)[C@H](Cc1ccccc1)NC(=O)[C@@H](NC(=O)[C@@H](NC(=O)[C@H](CC(C)C)NC(=O)[C@H](CCCCN)NC(=O)[C@@H](N)CCCCN)[C@@H](C)CC)[C@@H](C)O)C(=O)N[C@@H](CC(C)C)C(=O)N[C@@H](CCCCN)C(=O)N[C@@H](CCCCN)C(=O)N[C@H](C(=O)N[C@@H](CCCNC(=N)N)C(=O)N[C@@H](CCC(=O)O)C(=O)N[C@@H](CCCCN)C(=O)N[C@@H](CCCCN)C(=O)N[C@@H](CCCCN)C(=O)N[C@@H](CCC(=O)O)C(=O)N[C@@H](CS)C(=O)N[C@@H](CC(C)C)C(=O)N[C@H](C(=O)O)C(C)C)[C@@H](C)O | voltage-gated sodium channel, mouse | resurgent current, blocker | mouse CA3 neurons | kinetic model | baseline: Kd at -10 mV over -30 mV | Kd ratio | 3 fold
N#Cc1cc(C(=O)OCC[18F])c(C(F)(F)F)nc1N1CCN(C(=O)Cc2ccccc2)CC1 | P2Y purinoceptor 12 (P2ry12, Mus musculus, UniProt Q9CPV9) | PET | mouse, latent kainate epilepsy, brain |  |  | target to normal ratio | 1.14 ± 0.05
Cc1cn(C2CC(O)C(COP(=O)(O)OP(=O)(O)C(Br)P(=O)(O)O)O2)c(=O)[nH]c1=O (mixture of isomers) | DNA polymerase beta (POLB, Homo sapiens, UniProt P06746) | nucleotide incorporation rate, substrate, single-turnover kinetics | single-nucleotide gapped DNA | 37 °C, wild type, correct incorporation, together with: dTTP opposite template A |  | kpol | 2.8 ± 0.1 s⁻¹
Nc1nc2c(ncn2[C@H]2C[C@H](O)[C@@H](COP(=O)(O)OP(=O)(O)[C@H](Cl)P(=O)(O)O)O2)c(=O)[nH]1 | DNA polymerase beta (POLB, Homo sapiens, UniProt P06746, R183A) | nucleotide incorporation, pre-steady-state kinetics |  | opposite dC | baseline: R over S | kpol ratio | ~2
COc1ccc(CCNc2nc(-c3ccccc3)cc(C(F)(F)F)n2)cc1OC | Secretin receptor (SCTR, Homo sapiens, UniProt P47872) | Fluo-Sec binding, TR-FRET | HEK293 membranes, SNAP-tagged receptor | concentration not given, together with: Fluo-Sec |  | increase of binding | 13%
CC[C@H](C)[C@H](NC(=O)[C@@H](NC(=O)[C@H](CS)NC(=O)[C@H](CCSC)NC(C)=O)[C@@H](C)O)C(=O)N[C@@H](CC(=O)O)C(=O)N[C@@H](Cc1ccc(F)cc1)C(=O)N[C@@H](CC(=O)O)C(=O)N[C@@H](CCC(=O)O)C(=O)N[C@@H](Cc1ccc(O)cc1)C(=O)N[C@@H](CCCNC(=N)N)C(=O)N[C@@H](Cc1ccc(F)cc1)C(=O)N[C@@H](CCCNC(=N)N)C(=O)N[C@@H](CCCCN)C(=O)N[C@H](C(N)=O)[C@@H](C)O | human BRCA1 BRCT E1698A | fluorescence polarization |  | concentration not given, FAM-labelled compound | baseline: wild-type BRCA1 BRCT, higher = weaker binding | binding affinity fold reduction | 11 fold
COc1cc(CCC(C)=O)ccc1O | mouse mAb 1-D6 | antibody binding, indirect competitive ELISA |  | together with: coating antigen 6-OVA |  | IC50 | 200 ng/mL (≈ 1.03 µM)
Oc1c(C(Nc2nc3ccccc3s2)c2ccccc2OCc2ccccc2)ccc2cccnc12 (stereo not drawn) | Genome polyprotein, NS2B-NS3 protease (Dengue virus type 2, UniProt P14340) | enzyme activity, inhibitor |  | 0.1% CHAPS, together with: Bz-Nle-Lys-Arg-Arg-AMC substrate |  | Hill slope | 1.02 ± 0.05
CCCc1nc2ccc(N(Cc3ccco3)C(=O)c3ccccc3)cc2c(=O)n1Cc1ccc(-c2ccccc2-c2nnn[nH]2)cc1 | AGTR2 | ligand displacement, radioligand |  |  |  | Ki | 0.35 nM
COc1cc(C(=O)NC2CCC(N3CCN(CC4CCC5(CCCC5)C4)CC3)CC2)c(F)cc1Nc1ncc2c(n1)N(C1CCCC1(F)F)CC(F)(F)C(=O)N2C (stereo not drawn) | NTRK2 (Homo sapiens, UniProt Q16620) | cell-free assay, TR-FRET |  | 10 µM |  | inhibition | 1.81%
[64Cu+2].c1ccc(CNCc2ccc(CN3CCCN4CCNCCCN(CC4)CC3)cc2)nc1 | CXCR4 |  | NOD/SCID mouse, U87 and U87-stb-CXCR4 xenografts | iv, 90 min, no blocking dose | baseline: U87-stb-CXCR4 tumour over blood | tumour-to-blood ratio | 11.5 ± 2.17
CC(C=O)Cc1ccc(C(C)(C)C)cc1 (stereo not drawn) | Olfactory receptor 10S1 (OR10S1, Homo sapiens, UniProt Q8NGN2) | reporter gene, agonist | yeast |  | baseline: empty-vector control | GFP expression increase | 3.8 fold
CN1CCN(CC(=O)N2N=C3/C(=C/c4ccccc4)CCCC3C2c2ccccc2)CC1 (mixture of isomers) | ALOX15 (Homo sapiens, UniProt P16050) | enzyme activity, activator |  | together with: linoleic acid 10 µM |  | maximal activation | 98%
Cc1ccc(C(=O)N2CCN(Cc3noc(-c4ccccc4)n3)CC2)c(C)c1 | KCNQ2 (Homo sapiens, UniProt O43526) | potassium current, activator, whole-cell patch clamp | CHO, stable | 20 µM | baseline: current before compound | current fold increase | 1.06 ± 0.07
CCc1nc2ccc(N(Cc3ccccc3)C(=O)c3cccs3)cc2c(=O)n1Cc1ccc(-c2ccccc2-c2nn[nH]n2)cc1 | AGTR2 | ligand displacement, radioligand |  |  |  | Ki | 0.34 nM
O=Cc1c(O)ccc2ccccc12 | HUVEC | refers to: THBS1, CXCR4, CCL2 |  | 75 µM, 24 h |  | mRNA level | decreased

Repeated from above:
Compound | target or system | test | system | conditions | how to read | quantity | value
N#Cc1cc(C(=O)OCC[18F])c(C(F)(F)F)nc1N1CCN(C(=O)Cc2ccccc2)CC1 | P2Y purinoceptor 12 (P2ry12, Mus musculus, UniProt Q9CPV9) | PET | mouse, latent kainate epilepsy, brain |  |  | target to normal ratio | 1.14 ± 0.05
